Measurements from different studies.
Each numbered part is a random draw from the data of one study; scales do not carry over between parts.

Series 1
Target: RING finger protein unkempt homolog, zinc fingers 1-6, GST-SBP tag (UNK, Homo sapiens, UniProt Q9C0B0, residues 30-357)
UniProt Q9C0B0, sequence (30-357, looked up): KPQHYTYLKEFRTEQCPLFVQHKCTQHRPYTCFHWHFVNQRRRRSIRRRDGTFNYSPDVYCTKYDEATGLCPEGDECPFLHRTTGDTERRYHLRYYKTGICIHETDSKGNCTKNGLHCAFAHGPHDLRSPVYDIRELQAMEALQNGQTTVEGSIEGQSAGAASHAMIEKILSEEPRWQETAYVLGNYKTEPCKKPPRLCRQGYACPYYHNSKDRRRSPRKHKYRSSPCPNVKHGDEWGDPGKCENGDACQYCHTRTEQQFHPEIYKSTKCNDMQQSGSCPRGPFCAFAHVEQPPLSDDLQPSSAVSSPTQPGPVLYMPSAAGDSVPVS
Method: RNA Bind-n-Seq
Form: RNA
Matrix: in vitro
Concentration: not given
Notes: RNA with constant flanks, ends assumed
Reference: input RNA pool
Reading: higher = stronger binding
All sequences stand within: GGGAGUUCUACAGUCCGACGAUC … CAACAGAGGAUUGAGCAUCA
| Strand | bound/input enrichment |
| --- | --- |
| CCUGCUCCCAAAUCAUGGGCCAGUAACAAGCAAGGUGGGCAAGGAGAUGGAAUCCAAGUGAACCGUCAGUUUCAGCAAGAAUUUCCCAGCCUGCAGGCAGCUGGGGAUCAGGAAAAAAAA | 0.156 ratio |
| CCCAGGCGGUCUUCCUUCAGAUUGCAGACUGAAGCCCAGGAAGAUGAUUGGUAUGACUGUCACCGGGAAAUACGUCUGAGUUUUUCUGAUACCUAUCAGGAUUAUGAGGAGUACUGGAGA | 0.105 ratio |
| GGCUUUAUUUUGUGCCAUGGGAUCCUAAAUACUGACGCUACAGCACUGAACCUUUGGAAACCCGCUCUUCAAAGUAGCUCUUGCCUCUCUCUCUUUCGGGAUGAAGUUUUCCACAUUCAC | 0.125 ratio |
| UAUGGUGCACUUUUUUCGCUAUUUAAGUUGGAUAUUUCUCUACAUUCCUGAAACAAUUUUCCGGUUUUUUUUGUACUAGAAAAUGCAGGCAGUGUUUUCACAAAAGUAACUGUACAGUGA | 0.128 ratio |
| CCUCCAGAAUUUGGGUUUCCUGAGAAGACAACAGUGAAACAGCGUUACCGGCUGCUUGGCAACCGCCUCAACGUGCAUGUGGUAGCAAAACUCCUCACAGUCCUGUGUGAAGGAUUUGGA | 0.264 ratio |
| CACGUACAGCCCUGAAUGCAGGUGCAGUUUGGGUUUUUUGUUUUGUUUUGUUUUGUUUUAUCCGCCAGUGGGCAAAGUGAAAUGUAAUUUUGGGUAAGCCAGGGCUACUUUAGCUUUUCU | 0.495 ratio |
| CUGUUUUGUGAAACAUGUCUACCCAGAAAAGUAGCAUUCUAUAAAUACUAUUAAACAACUCCGCUAUAUUAUUUUUAAGUAUUAAAUUAUAUGUCAAGCAGUUAAAGUGAAUUUCAGAGU | 2.48 ratio |
| GGCUCUACAGCGAUUAAGAAGAAACAACAAGAUGUGCUUGGUUUCCUAGAAGCCAACAAAACCGGAUUUGAAGAAAAAGAUAUUGCAGCCAAUGAAGAGAAUCGGAAGUGGAUGAGAGAA | 0.324 ratio |
| GAACUGUUGAGCUCCUAUGAUGUAGAUGUUAAUCAGAUCAUAAAUACCAUAUCCGAAUGGACCGUUUUGAUUAAGACCAGAGGCGUUAGGCGACCUGAAUUUCAGACUUUACUAACGGAA | 0.102 ratio |
| UUAUACCUUUUGGUUAUAAGCCCUGUGUUUGCCAUCCUUGAUCACUUGGCGGUGACUUUGCCGAGAUUGAAGUGGAGGAGUUAAGACACAUUGACUGUACCACAGACACACAUGUAUACU | 0.174 ratio |
| GUUGUCAGUGUGGACAAAGGAAGCAGAGCUGUGCUGUGGGCACAGCCUUGAUGCUGCACCCUCCGGAGCACCGUGGGACCCCACGGCCCAUCUUGGAGAAUGAUGUGUCCUCCCAGAAAA | 0.11 ratio |

Series 2
Target: Hepatocyte nuclear factor 3-beta, forkhead domain (FOXA2, Homo sapiens, UniProt Q9Y261, residues 142-269)
Method: protein-binding microarray
Form: hairpin DNA
Matrix: in vitro
Concentration: not given
Notes: whole hairpin DNA, median over replicate spots
Reference: not given
Reading: higher = stronger binding
All sequences stand within: GAGGCCAT … ATGGCCTCACACTC
Residues (chain): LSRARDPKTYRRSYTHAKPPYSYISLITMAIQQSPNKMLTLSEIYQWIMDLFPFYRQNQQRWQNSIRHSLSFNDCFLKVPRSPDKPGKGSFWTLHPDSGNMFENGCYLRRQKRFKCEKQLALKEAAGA
| Strand | median fluorescence |
| --- | --- |
| GTACGCAACGCCTCCTGGCGTTGCGTAC (5mC at 12) | 3260 a.u. |
| GCCGACAACGCCTCCTGGCGTTGTCGGC (5mC at 11 33) | 3250 a.u. |
| GTAACCAAAGCCTCCTGGCTTTGGTTAC | 2850 a.u. |
| GTAACCACGGCCTCCTGGCCGTGGTTAC (5mC at 16 28) | 3110 a.u. |
| GTAACCACGGCCTCCTGGCCGTGGTTAC | 2960 a.u. |
| GTAAAGAACGCCTCCTGGCGTTCTTTAC | 3090 a.u. |
| GCAAACACGGCCTCCTGGCCGTGTTTGC | 3590 a.u. |
| GCAAACCGCGCCTCCTGGCGCGGTTTGC (5mC at 15) | 3520 a.u. |
| GCAAACCGCGCCTCCTGGCGCGGTTTGC | 3510 a.u. |
| GTACGCAACGCCTCCTGGCGTTGCGTAC (5mC at 32) | 3620 a.u. |
| GTAAACAACGCCTCCTGGCGTTGTTTAC (5mC at 17) | 4710 a.u. |
| CGAACCAACGCCTCCTGGCGTTGGTTCG (5mC at 9) | 3230 a.u. |
| GTAACGAACGCCTCCTGGCGTTCGTTAC (5mC at 31) | 3260 a.u. |
| GCAAATAACGCCTCCTGGCGTTATTTGC | 3400 a.u. |
| GAAACCAACGCCTCCTGGCGTTGGTTTC | 3090 a.u. |
| GGAAACAACGCCTCCTGGCGTTGTTTCC (5mC at 35) | 3170 a.u. |
| GTAAACAACGCCTCCTGGCGTTGTTTAC (5mC at 14) | 4570 a.u. |
| GCAAACGACGCCTCCTGGCGTCGTTTGC | 3470 a.u. |
| GCAACCAACGCCTCCTGGCGTTGGTTGC | 3330 a.u. |
| GCAAACAATGCCTCCTGGCATTGTTTGC | 3700 a.u. |

Series 3
Target: Histone acetyltransferase KAT6A, winged helix 1, GST fusion (KAT6A, Homo sapiens, UniProt Q92794, residues 1-85)
Method: protein binding microarray
Form: double-stranded DNA, one strand shown
Matrix: in vitro
Concentration: not given
Notes: 8-mer, flanks averaged, mean of 2 arrays, mostly near background
Reference: not given
Reading: higher = stronger binding
Target sequence (chain): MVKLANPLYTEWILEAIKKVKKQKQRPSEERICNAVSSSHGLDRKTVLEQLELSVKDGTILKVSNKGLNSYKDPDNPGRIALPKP
| Strand | E-score |
| --- | --- |
| GAAGTCCC | 0.0641 |
| GTCAAACA | -0.176 |
| GTCTGACA | 0.00153 |
| ACAACTTC | -0.248 |
| CTACACAC | -0.0939 |
| GGGTCCTA | -0.15 |
| ACGCGGGA | 0.35 |
| AAGGTGGC | -0.18 |
| GCAAACGA | -0.151 |
| AACACCCG | 0.231 |
| GTGAATTA | 0.0243 |
| GCGTGCGA | 0.285 |
| ACTTAGGA | -0.213 |
| TAGCAACA | -0.152 |
| AGTGTCGG | 0.202 |
| AGGAAGGC | -0.241 |
| CGGTATCC | 0.29 |
| ACGCCGTG | 0.391 |
| GAGCGACA | -0.0609 |
| CCCGGCAA | 0.26 |
| AACGTAAA | -0.0417 |
| AACATACA | -0.219 |

Series 4
Target: Interferon regulatory factor 5, full length, phosphomimetic (IRF5, Homo sapiens, UniProt Q13568-2, residues 1-514, S451D/S453D/S456D/S462D)
Method: protein-binding microarray
Form: double-stranded DNA, one strand shown
Matrix: in vitro
Concentration: 940 nM top
Notes: 60-bp whole probe
Together with: salmon DNA 0.4 mg/ml
Reference: random background probes
Reading: higher = stronger binding
All sequences stand within: GCCTAGCAC … GTCTTGATTCGCTTGACGCTGCTG
| Strand | fitted relative affinity [z-score] |
| --- | --- |
| TGAGGACTGGGTATCGGTTAGTGCTAG | 3.29 |
| TTGGGACTGCTTATCCTTTAGTGCTAG | -0.513 |
| TCCATTTTCAGAATTTACTTGTGCTAG | 0.829 |
| CACGGTATCCTTATCCTGACGTGCTAG | 0.0611 |
| GACGGCCTGCTTTTCCTGACGTGCTAG | -0.155 |
| GACGCTCTCGGACTGGGGACGTGCTAG | 1.01 |
| TTAGATTTCAGACTGGATAAGTGCTAG | 0.0841 |
| GACGGACTGGACACTGGGCACGTGCTA | -0.705 |
| GACGGTCTCGGTATAGGGACGTGCTAG | 4.25 |
| GACTGTCTCGGACTGGGGACGTGCTAG | 0.607 |
| CACTTTTCCTACATCAGCTGGTGCTAG | 1.38 |
| GACGATCTCAGTCTGGAGACGTGCTAG | -0.106 |
| GACGGTTCCCTTTTCCCGACGTGCTAG | 1.66 |
| TTAGATTCCAGTTTCAATTAGTGCTAG | 3.13 |
| CTTGCTACACATCTCACTCTGTGCTAG | 0.873 |
| GACGATCTCAGTATTGAGACGTGCTAG | 0.075 |
| GTAGGTTCCGGTTTCGGTTAGTGCTAG | 9.5 |
| TTAGGTCTCCTACAGCTTTAGTGCTAG | -0.0852 |
| TCATCCTCCTCTCTCTTACTGTGCTAG | 1.13 |
| GACGGAATCGACACTGGGGACGTGCTA | -0.211 |
| CAGAATTTACTTTCTACGTCGTGCTAG | 0.74 |
| GACCGACTGGACTATCGGGACGTGCTA | -0.257 |
| CAGAAAATGGAAACTCGTATGGTGCTA | -0.111 |
| TTAGGTTTCCGACTGGGTTAGTGCTAG | 0.424 |
| GTAGAACTGAGTATCGATTAGTGCTAG | 4.31 |

For quick reference, copied from above (series 1):
| Strand | bound/input enrichment |
| --- | --- |
| CACGUACAGCCCUGAAUGCAGGUGCAGUUUGGGUUUUUUGUUUUGUUUUGUUUUGUUUUAUCCGCCAGUGGGCAAAGUGAAAUGUAAUUUUGGGUAAGCCAGGGCUACUUUAGCUUUUCU | 0.495 ratio |
| UUAUACCUUUUGGUUAUAAGCCCUGUGUUUGCCAUCCUUGAUCACUUGGCGGUGACUUUGCCGAGAUUGAAGUGGAGGAGUUAAGACACAUUGACUGUACCACAGACACACAUGUAUACU | 0.174 ratio |
| CCCAGGCGGUCUUCCUUCAGAUUGCAGACUGAAGCCCAGGAAGAUGAUUGGUAUGACUGUCACCGGGAAAUACGUCUGAGUUUUUCUGAUACCUAUCAGGAUUAUGAGGAGUACUGGAGA | 0.105 ratio |
| CUGUUUUGUGAAACAUGUCUACCCAGAAAAGUAGCAUUCUAUAAAUACUAUUAAACAACUCCGCUAUAUUAUUUUUAAGUAUUAAAUUAUAUGUCAAGCAGUUAAAGUGAAUUUCAGAGU | 2.48 ratio |
| CCUCCAGAAUUUGGGUUUCCUGAGAAGACAACAGUGAAACAGCGUUACCGGCUGCUUGGCAACCGCCUCAACGUGCAUGUGGUAGCAAAACUCCUCACAGUCCUGUGUGAAGGAUUUGGA | 0.264 ratio |
| CCUGCUCCCAAAUCAUGGGCCAGUAACAAGCAAGGUGGGCAAGGAGAUGGAAUCCAAGUGAACCGUCAGUUUCAGCAAGAAUUUCCCAGCCUGCAGGCAGCUGGGGAUCAGGAAAAAAAA | 0.156 ratio |
| GGCUUUAUUUUGUGCCAUGGGAUCCUAAAUACUGACGCUACAGCACUGAACCUUUGGAAACCCGCUCUUCAAAGUAGCUCUUGCCUCUCUCUCUUUCGGGAUGAAGUUUUCCACAUUCAC | 0.125 ratio |
| UAUGGUGCACUUUUUUCGCUAUUUAAGUUGGAUAUUUCUCUACAUUCCUGAAACAAUUUUCCGGUUUUUUUUGUACUAGAAAAUGCAGGCAGUGUUUUCACAAAAGUAACUGUACAGUGA | 0.128 ratio |
| GGCUCUACAGCGAUUAAGAAGAAACAACAAGAUGUGCUUGGUUUCCUAGAAGCCAACAAAACCGGAUUUGAAGAAAAAGAUAUUGCAGCCAAUGAAGAGAAUCGGAAGUGGAUGAGAGAA | 0.324 ratio |
| GAACUGUUGAGCUCCUAUGAUGUAGAUGUUAAUCAGAUCAUAAAUACCAUAUCCGAAUGGACCGUUUUGAUUAAGACCAGAGGCGUUAGGCGACCUGAAUUUCAGACUUUACUAACGGAA | 0.102 ratio |
| GUUGUCAGUGUGGACAAAGGAAGCAGAGCUGUGCUGUGGGCACAGCCUUGAUGCUGCACCCUCCGGAGCACCGUGGGACCCCACGGCCCAUCUUGGAGAAUGAUGUGUCCUCCCAGAAAA | 0.11 ratio |
